Assay results of several laboratories.
Each line is one published result; not all experiments were run side by side. ± gives the spread as reported.

SMILES	assay	test system	setting	scale	quantity	value
Cc1ccc(Sc2ccccc2N2CCNCC2)c(C)c1	refers to: abdominal pain	healthy adult men	oral, 10 mg daily, 12 days		participants with TEAE	0%
C[C@@H]1COCCN1c1cc(C2([S@](C)(=N)=O)CC2)nc(-c2cc[nH]c3nccc2-3)n1		Japanese advanced solid tumour patients	oral, 160 mg twice daily, CTCAE grade ≥3		Anemia incidence	16.7%
N#Cc1ccc2c(c1)[C@H]1CCCN(C(=O)c3ccc4[nH]cnc4c3)[C@H]1C2		human females	40 mg, day 7		total testosterone level	1.1 nmol/L
Cc1cc(-c2nnc(N)nc2-c2ccc(F)cc2)cc(Cl)n1	refers to: Nausea	human phase Ia/Ib NSCLC, post-immunotherapy	oral, 100 mg once daily		patients with treatment-related adverse events	52.9%
C[C@H]1Oc2cc(cnc2N)-c2c(nn(C)c2C#N)CN(C)C(=O)c2ccc(F)cc21		human patients, plasma	oral, cycle 2 day 1, geometric mean, with: avelumab		Tlast	17 h
CC1(C)S[C@@H]2[C@H](NC(=O)[C@H](N)c3ccc(O)cc3)C(=O)N2[C@H]1C(=O)O		male Hartley guinea pigs, anaesthetized	intravenous, 10 mg/kg group, baseline before infusion		mean blood pressure	38 ± 0.3 mmHg
CCC(=O)N(CCC(c1ccc2c(c1)OCO2)c1ccccc1OC)Cc1ccccc1 (stereo not drawn)		female athymic nude mouse, blood	i.p., 60 mg/kg twice daily, 14 days, group mean		EO	2.58%
Cc1ccc([C@@H]2O[C@H](CO)[C@@H](O)[C@H](O)[C@H]2O)cc1Cc1ccc(-c2ccc(F)cc2)s1		Japanese type 2 diabetes patients	200 mg, day 18, 24 h urine collection	baseline: baseline	urinary potassium excretion change	0.662 mEq
N[C@@H](C[18F])C(=O)O	PET	athymic nude mouse	intravenous, 15 min		maximum muscle uptake	1.68 ± 0.27 %ID/cc
O=C(O)c1cccc(C(=O)O)c1		betaine/ethylene glycol DES-water	DES mass fraction 0.20		apparent dissolution enthalpy	2.79 kcal/mol
Cn1cc(Nc2nccc(-c3ccc4c(c3)CN(C3COC3)CC[C@H]4NC(=O)c3cn(C(C)(C)C)nn3)n2)cn1		human, whole blood	50 mg twice daily, day 14	baseline: pre-dose baseline	CD8+ T cell count change	-0.89%
COc1ccc2[nH]c([S+]([O-])Cc3ncc(C)c(OC)c3C)nc2c1 (stereo not drawn)		healthy Chinese volunteers CYP2C19 RM, plasma	oral, 20 mg single dose, enteric-coated tablets		AUC(0-t)	598 ± 295 ng·h/mL
CCNC(=O)c1ncccc1O					pKa (basic)	2.5
COc1cc(N)c(Cl)cc1C(=O)NC1CCN(CCCOc2ccc(F)cc2)CC1OC (stereo not drawn)		male Hartley guinea pigs, anaesthetized	intravenous, 1 mg/kg over 10 min, after infusion		mean blood pressure	32 ± 0.2 mmHg
COc1ccc([C@@H](O)c2cc(-c3ncnc4cc(N5CCOCC5)ccc34)c(F)cc2Cl)nn1		locally advanced rectal cancer patients	150 mg, with: capecitabine and radiotherapy		constipation TEAE incidence	50%
N=C(N)NCCNC(=O)C1(Nc2ccccc2)CCN(Cc2ccccc2)CC1		Sprague-Dawley rats (male), plasma	intravenous, 2.5 mg/kg		C0	17400 ± 9070 ng/mL
CN(CCCN1CCN(C(=O)CN2CCN(CC(=O)[O-])CCN(CC(=O)[O-])CCN(CC(=O)[O-])CC2)CC1)c1ccc2nccc(C(=O)NCC(=O)N3CC(F)(F)C[C@H]3C#N)c2c1.[68Ga+3]		mice, HT-1080.hFAP and HT-1080 wild-type xenografts, adrenal	iv, 500 pmol, 4 h post injection		uptake	0.2 %IA/g
CC(=O)Oc1ccccc1C(=O)O		male Hartley guinea pigs, anaesthetized	intravenous, 1 mg/kg group, baseline before infusion		mean blood pressure	38 ± 0.1 mmHg
Cc1c(-c2ccc(N3CCc4cccc(C(=O)Nc5nc6ccccc6s5)c4C3)nc2C(=O)O)cnn1CC12CC3(C)CC(C)(C1)CC(OCCNCC[C@H](O)CO)(C3)C2		beagle dog, male, anaesthetised	intravenous infusion, 0.3 mg/kg/min, 60 min	baseline: vehicle	QTcV interval change	11 ms

SMILES	assay	test system	setting	scale	quantity	value
O=C(Nc1nc2cccc(-c3ccc(CN4CCS(=O)(=O)CC4)cc3)n2n1)C1CC1	refers to: diarrhoea	human rheumatoid arthritis patients	oral, 150 mg once daily, 4 weeks, regardless of relatedness		treatment-emergent adverse events	0%
COc1cc2c(Nc3ccc(Cl)c(Cl)c3F)ncnc2cc1OC[C@@H]1C[C@@H]2CN(C)C[C@@H]2C1		FVB wild-type mice, brain	intraperitoneal infusion (osmotic pump), 10 µg/h, 48 h		unbound brain concentration	3.24 nM
O=C(O)CCC(=O)O.[2H]C([2H])([2H])Oc1cc(C)c2[nH]ccc2c1CN1CC[C@@H](C2CC2)C[C@H]1c1ccc(C(=O)O)cc1		healthy Chinese subjects	200 mg, single ascending dose		TEAE decreased white cells	0%
CCN1/C(=C/C(C)=O)Sc2ccc(F)cc21		cynomolgus monkey	oral, 10 mg/kg, 4 h post-dose		QRS duration	36 ± 1 ms
CCc1cc2ncc(CN3CCN(c4ccc(C(=O)NC)nc4)CC3)cc2[nH]c1=O		male rat	oral, 5 mg/kg/day, 4 weeks, GLP toxicology	baseline: control	white blood cell count change	0.75
CC[C@H](C)[C@H](NC(=O)CN)C(=O)N[C@@H](C)C(=O)N[C@@H](CC(=O)O)C(=O)N[C@@H](C)C(=O)N[C@H](C(=O)N[C@@H](CCCCN)C(=O)N[C@@H](C)C(=O)N[C@H](C(=O)N[C@@H](C)C(=O)N[C@@H](CCCCN)C(=O)N[C@@H](C)C(=O)N[C@@H](CC(C)C)C(=O)NCC(N)=O)[C@@H](C)CC)[C@@H](C)CC	circular dichroism at 222 nm	30% TFE	100 µM		mean residue ellipticity	-5340 deg cm2/dmol
CNCc1ccc(-c2[nH]c3cc(F)cc4c3c2CCNC4=O)cc1		patients	oral, 600 mg twice daily, grade 5		constipation incidence	0%
Oc1ccc(Cl)c2cccnc12					pKa (basic)	4.1
CCn1c(SCC(=O)Nc2cccc(C(C)=O)c2)nnc1-c1ccncc1					pKa	3.12
C=CCN1CC(=O)N2[C@@H](Cc3ccc(O)cc3F)C(=O)N(Cc3cccc(N4CC(N5CCN(CC)CC5)C4)n3)C[C@@H]2N1C(=O)NCc1ccccc1		advanced solid tumour patients	oral, 30 mg twice daily, any grade, dose-escalation		treatment-related AST increased	0%
C[C@H](CS)C(=O)N1CCC[C@H]1C(=O)O		male Hartley guinea pigs, anaesthetized	intravenous, 10 mg/kg over 10 min, after infusion		mean blood pressure	31 ± 0.2 mmHg
CNC(=O)c1ccc(-c2cnc3ncc(Cc4ccc5ncccc5c4)n3n2)cc1F	CTCAE v4.0, any causality	human gastric cancer patients	oral, 600 mg twice daily, expansion cohort at RP2D		bilirubin increase incidence (all grades)	11%
O=C(COC(=O)c1n[nH]c2ccccc12)Nc1ccc(N2CCCCC2)cc1		sheep erythrocytes	1 h, pH 7.5		maximum haemolysis	16.5%
C[C@@H](Nc1cc(F)cc(F)c1)c1cc(C(=O)N(C)C)cc2c(=O)cc(N3CCOCC3)oc12	refers to: Vomiting	advanced solid tumour patients	oral, dose not given, dose expansion		related serious adverse events	5%
O=C1CCc2ccc(OCCCCN3CCN(c4cccc(Cl)c4Cl)CC3)cc2N1	refers to: Xerostomia	genotyped patients, CYP2D6 normal metabolizers	dose not given, long-acting oral or depot		adverse event incidence	7.3%
NCc1cc2c(cc1F)C(=O)N(C1CCC(=O)NC1=O)C2 (stereo not drawn)		male Sprague-Dawley rat, whole blood	3 h		remaining compound	92.5%
Cc1cc(Nc2cc3ncccc3c(N[C@@H]3C[C@H]4CC[C@@H](C3)N4CCC#N)n2)n[nH]1		healthy human subjects	oral, 300 mg, 14 days, multiple ascending dose		papular rash incidence	17%
COc1ncc(-c2nc3c(n2C(C)C)[C@H](c2ccc(Cl)cc2)N(c2cc(Cl)cn(C)c2=O)C3=O)c(OC)n1		human patients, plasma	oral, 1 mg, low-dose arm, cycle 1 day 8		median Tmax	4 h
FC(F)(F)c1ccc(CNc2ccc(Cc3c[nH]c4ncc(Cl)cc34)cn2)cn1	refers to: dry skin	human, advanced solid tumours, non-TGCT cohort	oral, 1000 mg/day, grade 3 or higher		treatment-related adverse events	0%

SMILES	assay	test system	setting	scale	quantity	value
Cc1cc(C)c(CNC(=O)c2cc(Cl)c3c(c2C)O[C@@](C)([C@H]2CC[C@H](N(C)C)CC2)O3)c(=O)[nH]1		relapsed/refractory NHL patients	oral, 200 mg once daily, onset after cycle 1 day 1		grade ≥3 adverse event Pain	4.2%
Cc1c(Br)cc(NC(=O)NS(=O)(=O)O)cc1Br		CD-1 mice, whole blood	intravenous, 2 mg/kg		C0	13400 nM
CCO[C@H]1CCN(Cc2c(OC)cc(C)c3[nH]ccc23)[C@H](c2ccc(C(=O)O)cc2)C1		human mild hepatic impairment, plasma	oral, 200 mg single dose, median		total half-life	24.3 h
CN(C)c1ccc2c(c1)c(=O)n(-c1ccc(C[C@H](NC(=O)c3c(Cl)cccc3Cl)C(=O)O)cc1)c(=O)n2C		cynomolgus monkey, plasma			unbound fraction	0.013
COc1ccc(C(O)COc2ccc(-c3csc(-c4ccc(OCC(O)c5ccc(OC)c(OC)c5)cc4)n3)cc2)cc1OC (stereo not drawn)		C57BL/6J mice, plasma	oral, 75 mg/kg	baseline: 75 mg/kg over 10 mg/kg	AUC(0-inf) ratio	7.3
COc1cc2c3c(n(CCCN4CCOCC4)c(=O)c2cc1OC)-c1cc2c(cc1C3=O)OCO2		beagle dogs, female, plasma	intravenous infusion, 215 mg/m^2, 1 h infusion		Cmax	772 ng/mL
CC(C)(C(=O)N1CCOc2c(C#N)cncc2C1)C(F)F	refers to: vascular disorders	healthy humans, both sexes	oral, 30 mg single dose		subjects with TEAE	16.7%
COC(=O)c1ccc(-c2c(C)[nH]c3cc(OC)c(Cl)cc3c2=O)cc1		PAMPA	pH 7.4		Papp	198 ×10⁻⁶ cm/s
CC(C)NCCCC[C@@H]1NC(=O)[C@H](Cc2ccc(O)cc2)NC(=O)[C@H](Cc2ccccc2)NC(=O)CC[C@H](C(=O)N[C@@H](CCCCNC(C)C)C(=O)N[C@@H](CCCCNC(=O)[C@H](CCC(=O)O)NC(=O)[C@H](CCC(=O)O)NC(=O)[C@H](CCC(=O)O)NC(=O)CN2CCN(CC(=O)O)CCN(CC(=O)O)CCN(CC(=O)O)CC2)C(N)=O)NC(=O)CNC(=O)[C@H](Cc2ccc3ccccc3c2)NC(=O)[C@@H](CCCNC(=N)N)NC1=O [gallium-68 labelled]		mouse with PC-3 xenograft, lung	intravenous, 1 h		tissue uptake	0.71 %ID/g
COc1nc(-c2cc(C)c(N[C@@H](C)c3cc(F)cc(F)c3)nn2)ccc1-n1cnc(C)c1		rat Sprague-Dawley male, plasma	oral, 50 mg/kg daily for 9 days, 4 h after dose		concentration	23700 ng/mL
CCCOc1ccc([C@H]2CNC(=O)N2c2ccc3[nH]cnc3c2)cc1		human volunteers fasted, plasma	oral capsule, 200 mg single dose, crossover, geometric mean		effective half-life	2.32 h
Cc1cc(-c2nccc3c2ccn3CC(=O)Nc2ccc(-c3cnccn3)cn2)ccn1		human	SAD part, single 7 mg dose		subjects with Wheezing TEAEs	16.7%
COc1ccc2c(c1)sc(-c1ccc(N(C)C)cc1)[n+]2C		PBS	free dye		brightness	104 M⁻¹ cm⁻¹
Cc1ccc(C(=O)Nc2ccnc(S(N)(=O)=O)c2)c(N2CCCC(F)(F)CC2)n1		rhesus monkey, plasma	intravenous, dose not given, 30 min		unbound plasma concentration	178 ± 11.5 nM
CC(C)(C)c1ccc(O)c(CN(Cc2cc(C(C)(C)C)ccc2O)C2CCC(NC(N)=O)CC2)c1 (stereo not drawn)		mouse brain	5 ng/g, 3 months, -20 °C, long-term storage		recovery	99.8 ± 1.14%
CN1C(=O)[C@@H](NC(=O)c2nnc(Cc3ccccc3)[nH]2)COc2cccnc21	phase I multiple ascending dose	human, male and female	oral, 100 mg, 14 days		nasopharyngitis incidence	12.5%
CCOc1c([C@H](C)n2nc(C)c3c(N)ncnc32)cc(Cl)c(F)c1[C@@H]1CNC(=O)C1	refers to: QTcF ≤450 ms	previously treated B-cell malignancy	oral, 30 mg once daily, baseline QTcF ≤450 ms		ECG observations	98.3%
O=C(N[C@H](Cc1c[nH]c2ccccc12)C(=O)Nc1ccncc1)c1ccc(-c2cc(C(F)(F)F)ccc2F)cc1F		Swiss Webster mouse, female, heart	oral, 50 mg/kg, 8 h, 20% HPβCD vehicle		concentration	940 nM
CC(C)C[C@H](NC(=O)[C@H](CC(C)C)NC(=O)[C@H](Cc1c[nH]c2ccccc12)NC(=O)[C@H](CCC(=O)O)NC(=O)[C@@H](NC(=O)[C@H](Cc1ccccc1)NC(=O)[C@H](CCC(=O)O)NC(=O)[C@H](CCCCNC(=O)COCCOCCNC(=O)COCCOCCNC(=O)CC[C@H](NC(=O)CCCCCCCCCCCCCCCCCCC(=O)O)C(=O)O)NC(=O)[C@H](C)NC(=O)[C@H](CCCCN)NC(=O)[C@H](CCCCN)NC(=O)[C@H](CCC(=O)O)NC(=O)[C@H](CC(=O)O)NC(=O)[C@H](CC(C)C)NC(=O)[C@H](Cc1ccc(O)cc1)NC(=O)[C@H](CCCCN)NC(=O)[C@H](CO)NC(=O)[C@H](Cc1ccc(O)cc1)NC(=O)[C@H](CC(=O)O)NC(=O)[C@H](CO)NC(=O)[C@@H](NC(=O)[C@H](Cc1ccccc1)NC(=O)[C@@H](NC(=O)CNC(=O)[C@H](CCC(N)=O)NC(=O)C(C)(C)NC(=O)[C@@H](N)Cc1c[nH]cn1)[C@@H](C)O)[C@@H](C)O)C(C)C)C(=O)N[C@@H](CCC(=O)O)C(=O)NCC(=O)NCC(=O)N1CCC[C@H]1C(=O)N[C@@H](CO)C(=O)N[C@@H](CO)C(=O)NCC(N)=O		human, plasma	subcutaneous, 16 mg weekly, week 20, cohorts 1 and 2		CLss/F	0.02 L/h

A few entries again:
SMILES	assay	test system	setting	scale	quantity	value
N#Cc1ccc2c(c1)[C@H]1CCCN(C(=O)c3ccc4[nH]cnc4c3)[C@H]1C2		human females	40 mg, day 7		total testosterone level	1.1 nmol/L
Cc1cc(-c2nnc(N)nc2-c2ccc(F)cc2)cc(Cl)n1	refers to: Nausea	human phase Ia/Ib NSCLC, post-immunotherapy	oral, 100 mg once daily		patients with treatment-related adverse events	52.9%
C[C@H]1Oc2cc(cnc2N)-c2c(nn(C)c2C#N)CN(C)C(=O)c2ccc(F)cc21		human patients, plasma	oral, cycle 2 day 1, geometric mean, with: avelumab		Tlast	17 h
CC1(C)S[C@@H]2[C@H](NC(=O)[C@H](N)c3ccc(O)cc3)C(=O)N2[C@H]1C(=O)O		male Hartley guinea pigs, anaesthetized	intravenous, 10 mg/kg group, baseline before infusion		mean blood pressure	38 ± 0.3 mmHg
CCC(=O)N(CCC(c1ccc2c(c1)OCO2)c1ccccc1OC)Cc1ccccc1 (stereo not drawn)		female athymic nude mouse, blood	i.p., 60 mg/kg twice daily, 14 days, group mean		EO	2.58%
